Measured values collected from several papers.
Every numbered part comes from another study and shows a few of its results, in no order.

Sample 1
Target: Ras GTPase-activating protein-binding protein 1, C-terminal RGG region (G3BP1, Homo sapiens, UniProt Q13283)
Sequence of UniProt Q13283 (whole entry, looked up): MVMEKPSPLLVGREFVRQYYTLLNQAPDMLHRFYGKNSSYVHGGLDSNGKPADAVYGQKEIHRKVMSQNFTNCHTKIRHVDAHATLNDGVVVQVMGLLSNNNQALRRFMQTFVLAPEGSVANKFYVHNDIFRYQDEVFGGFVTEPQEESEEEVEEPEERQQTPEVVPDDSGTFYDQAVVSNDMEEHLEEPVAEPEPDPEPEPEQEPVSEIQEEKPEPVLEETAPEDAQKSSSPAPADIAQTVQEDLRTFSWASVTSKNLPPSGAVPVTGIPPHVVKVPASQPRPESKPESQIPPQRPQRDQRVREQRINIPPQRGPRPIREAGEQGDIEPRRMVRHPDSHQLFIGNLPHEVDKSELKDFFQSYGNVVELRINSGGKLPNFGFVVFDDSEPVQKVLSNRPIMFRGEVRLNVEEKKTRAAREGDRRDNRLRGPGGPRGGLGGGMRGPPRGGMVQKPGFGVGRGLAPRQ
Technique: RNA Bind-n-Seq
Form: RNA
Sample: in vitro
Concentration: 1 µM
Setting: whole 134-nt RNA, ends assumed
With: 150 mM KCl
Baseline: input library
Reading: higher = stronger binding
All sequences stand within: GGGAGUUCUACAGUCCGACGAUC … UGGAAUUCUCGGGUGUCAAGG
| Strand | log2 enrichment |
| --- | --- |
| GUCCUGUGCUACACAUCGUAUGUACCGAAUCGGGAAAAAGGGGAAAAAGGGGAAAAAGGAAAGUAUUAUGUUACGCCGUUCGGAUCUGCA | -0.94 |
| AAGUCCUGUGCUACACAUCGUAUGUACCGAAUCGGGAGGGAAAGGGAAAAAAAGGGAAAGUAUUAUGUUACGCCGUUCGGAUCUGCACUU | 0.0771 |
| CUCAAGUCCUGUGCUACACAUCGUAUGUACCGAAUCGGUUGGUUGGGUUGGGGAAAGUAUUAUGUUACGCCGUUCGGAUCUGCACUUCCA | -0.96 |
| UAGCUAAACUAAUGUCAACUUAUUUCCUUUUUUCCUUUAGCCACCAUCAAAGAACAGACGAGAGAGAACAGAACUGAAGCCUGAUUUCUU | -1.54 |
| CCUGUGCUACACAUCGUAUGUACCGAAUCGGGGAGGGGAAAAAAAGGGGUUUUUUUGGGGAAAGUAUUAUGUUACGCCGUUCGGAUCUGC | 0.504 |
| UGGGAGGUGGAUUUUGUUUAUUUUUUUAGCUCAUUUCCAGGGCUGGGAAUUUUUUUUUAAUAUGUGUCAUGAAUAAAGUUGUUUUUGAAA | 2.82 |
| CACAGACAACACGCACCCACACAGACACAGAGGGAAGGGGUUGGGAUGGGGACAGGGUGCACAGCAGGGCGGGGUAGGACCCGAGCCCCU | -1.06 |
| UUCAGUAAAAUGGCAGAAGAGAAACUGACCCACAAAAUGGAAGCUAAUAAAGAGAACCGAGAGGCACAAAUGGCUGCCAAACUGGAACGU | -1.95 |
| CUCAAGUCCUGUGCUACACAUCGUAUGUACCGAAUCGGGGUUGGUUGGUUGGGGAAAGUAUUAUGUUACGCCGUUCGGAUCUGCACUUCC | -0.582 |
| UGGCCCUGGUGGCAUGCGGGGAGGAAGAGGUGGCCUCAUGGAUCGUGGUGGUCCCGGUGGAAUGUUCAGAGGUGGCCGUGAUGGAGACAG | 3 |
| CCUGUGCUACACAUCGUAUGUACCGAAUCAAAUUUUUUUAAAUUUUUAAAUUUUUUUAAAAAAGUAUUAUGUUACGCCGUUCGGAUCUGC | -2.39 |
| CUGUGCUACACAUCGUAUGUACCGAAUCGGGUUUUUUUGGGAAAAAAAGGGAAAAAAAGGGAAAGUAUUAUGUUACGCCGUUCGGAUCUG | -2.15 |
| CACAGACAACACGCACCCACACAGACACAGAGGGAAGGGGUUGGGAUGGGGACAGGGUGCACAGCAGGUCGGGGUAGGACCCCAGCCCCU | -1.52 |
| CACAGACAACACGCACCCACACAGACACAGAGGGAAGGGGUUGGGAUGGGGACAGGCUGCACAGCAGGGCGGGGUAGGACCCCAGCCCCU | -0.637 |

Sample 2
Target: RNA binding protein fox-1 homolog 2, RRM domain, GST-SBP tag (RBFOX2, Homo sapiens, UniProt O43251-10, residues 100-194)
Technique: RNA Bind-n-Seq
Form: RNA
Sample: in vitro
Concentration: 365 nM
Setting: natural RNA segment, single round, ends assumed
Baseline: no-protein control
Reading: higher = stronger binding
All sequences stand within: GGGAGUUCUACAGUCCGACGAUC … UGGAAUUCUCGGGUGCCAA
Construct (chain): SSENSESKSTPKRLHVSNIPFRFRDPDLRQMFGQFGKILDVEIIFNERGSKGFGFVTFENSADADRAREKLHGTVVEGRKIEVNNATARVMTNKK
| Strand | RBNS enrichment (R) |
| --- | --- |
| ACUAGGGUGCUCACCCCUCAAGAUUGAUUCCCUGUCUUUCCCUCUGGGGCACCGCACUUUGUAAAGGGUGAUGGUGGACCCCUUCCCUUACUUUCAGGUCUGGAGUCUUC | 0.287 |
| CUGCGGCCCCAAAGCCCCUGGGCUUGGCUGUUUGAGGCAGAGGUGAUGGACUCCGGGGGCCUGACACUUGGGAUUUGGGAGGCUUCCUAGAGCGCUCAGCAGGUGAAGGC | 0.65 |
| GCCAUUUUUGCCAACAAUAGCUUGUGGCUCCCCACAUUUUCCUACCCUGCACUCAAGGGCCAGACCACUCUCUGCAUGGACCAGACCAUCUUCCCAAACCCAUGGUGCUU | 1.93 |
| UUCCUUACAUUAUAAAAUAAAAGCAGUGAAGUAAAUUGACAGCUAAGGAUCUCUAUUUCAUCUCUUGAACGAUGAAAAUAGUGACGUAUAUAUAGUACUUCUAUAAAUAA | 0.47 |
| UUUUCUGUCUCCCAACCAAGGAAUUCCUCUGCUCAGGCUCCUGUUGCCCAGGAUAGCUCUCUUCUAUAGCCAGGAUGUGGAGCUUAAGGAGACUCCAAUGUUUACUUUCU | 0.442 |
| UCUGUGUCUCCUAGAAGCCUGACAGAGACCCCCAGGGCAGUGGGUGGGUGGCGGGCUAGAGACCCUUGCCUGUGUCCGGGACCCUGGCGCCGCUCUCCCCUCCUGUGGAU | 1.85 |
| UCAAUAAGUCUUAUUUGCAAAAGCCAUGAUCUUCAAGGGUGAGAGAAAAAUCUGAAGGUCAGCGGAGACCUCAGAGAAAACGGGGGCAAAGUGUCUUAGGCCAGAAGUAC | 0.994 |
| AUUAACUGUCACCUUUUAUUCUUAAACUUGAAAGUACAGAAAUCAUUAAAUUAUUAAGUUGUACAAUAAAAGGAUUGGUUUCUUUUCUUUUUUUUUUUUUUAAGUGCUUC | 0.942 |
| AACAGUCCUAAAAUGAUGGAACUAUUUAAAAGGGUGUCAACUCUUAAGAGAACACCUGUGGUUUAAAUGUUCUUUUUCUGCUUCCUUUUCUAUCUGAGAGGUCCUAACCA | 0.258 |
| CUCUCACAGGGGUAAUCAUCUCAAGUGGUAUUUGUAGCCAAGUGGGAGCUAUUUUCUUUUUUGUGCAUAUAGAUAUUUCUUAAAUGAAGCUGCUUUCUUGUCUUUUAUUU | 0.751 |
| GAAUUAUGUUUCCGAGGCACUGUUUUAUCUCUGUGAAUCUUGAAUAACUUUUUUAUAUUUGGGUUAUGAUGUCAAACGAUCCUAAGCGAAGAUGAUUUCAGUUCAUCAAA | 0.69 |
| CUAACCCUCUUUUCCUACAAAGGAGAAAGAUAAAAGGCACAAAGGUUACCGCCAAGGCCCGUCAGCUGUGUAGUGGCAAAGCCGAGACCGAGUCUCCUAAGUCCCCGUCA | 0.329 |

Sample 3
Target: Sal-like protein 4, full length isoform A (SALL4, Homo sapiens, UniProt Q9UJQ4, residues 1-1053)
Sequence of UniProt Q9UJQ4 (whole entry, looked up): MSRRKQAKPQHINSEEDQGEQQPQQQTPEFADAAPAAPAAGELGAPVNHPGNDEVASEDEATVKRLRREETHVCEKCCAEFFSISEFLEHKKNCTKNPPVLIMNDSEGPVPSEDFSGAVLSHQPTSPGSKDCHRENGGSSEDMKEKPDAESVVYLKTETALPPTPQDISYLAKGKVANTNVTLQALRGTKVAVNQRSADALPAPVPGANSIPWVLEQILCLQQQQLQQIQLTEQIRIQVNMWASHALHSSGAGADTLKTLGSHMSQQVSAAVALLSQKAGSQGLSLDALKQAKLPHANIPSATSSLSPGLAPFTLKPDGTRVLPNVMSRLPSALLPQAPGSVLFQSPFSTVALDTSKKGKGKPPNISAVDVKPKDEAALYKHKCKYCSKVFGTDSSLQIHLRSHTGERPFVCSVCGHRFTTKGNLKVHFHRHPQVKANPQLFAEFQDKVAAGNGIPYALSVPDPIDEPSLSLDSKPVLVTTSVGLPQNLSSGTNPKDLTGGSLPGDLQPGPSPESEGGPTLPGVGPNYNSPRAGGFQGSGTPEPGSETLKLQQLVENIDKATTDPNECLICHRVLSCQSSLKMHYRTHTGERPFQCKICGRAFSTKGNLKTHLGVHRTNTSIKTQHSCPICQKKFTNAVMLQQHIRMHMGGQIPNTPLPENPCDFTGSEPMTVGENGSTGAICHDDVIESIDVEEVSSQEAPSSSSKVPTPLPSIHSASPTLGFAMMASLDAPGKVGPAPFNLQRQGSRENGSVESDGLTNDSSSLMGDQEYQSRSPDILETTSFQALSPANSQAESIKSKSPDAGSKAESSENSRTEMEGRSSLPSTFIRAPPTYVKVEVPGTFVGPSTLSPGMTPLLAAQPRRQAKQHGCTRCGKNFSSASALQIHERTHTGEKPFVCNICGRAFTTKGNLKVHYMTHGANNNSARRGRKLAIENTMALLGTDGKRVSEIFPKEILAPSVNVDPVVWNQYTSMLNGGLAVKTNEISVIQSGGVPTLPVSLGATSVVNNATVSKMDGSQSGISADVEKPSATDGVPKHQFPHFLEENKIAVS
Technique: universal PBM
Form: double-stranded DNA, one strand shown
Sample: in vitro
Concentration: 600 nM
Setting: 8-mer, flanks averaged, mean of replicates
Reading: higher = stronger binding
| Strand | E-score |
| --- | --- |
| GAAAAGGC | 0.016 |
| GTCATGGA | 0.0221 |
| CTTCATCC | 0.0136 |
| TCACTGAA | -0.00319 |
| CGAAACAC | 0.0669 |
| AATCTACT | 0.195 |
| CTTTGGTA | 0.00715 |
| ACCGGGTG | -0.315 |
| AGTATCAA | 0.181 |
| GAAGATCC | -0.179 |
| AATTCAAG | 0.213 |
| GAGCTGCA | -0.2 |
| GAACCATC | -0.11 |
| ACCTGATA | 0.134 |
| CAACTTTC | 0.162 |
| GATTCCTA | 0.0059 |
| CTTTGATC | -0.049 |
| GCCAGTCC | -0.288 |
| ACTCTGTA | 0.0685 |
| CGGGGTTA | -0.142 |
| CCCGAGAA | -0.138 |
| AAGGCACT | -0.153 |
| AAATGCAG | 0.0758 |
| ACACAGGT | -0.142 |
| AAATAAAA | 0.336 |

Sample 4
Target: Interferon regulatory factor 3, full length, phosphomimetic (IRF3, Homo sapiens, UniProt Q14653, residues 1-427, S386D/S396D/S398D/S402D/T404D/S405D)
Sequence of UniProt Q14653 (whole entry, unmodified, looked up): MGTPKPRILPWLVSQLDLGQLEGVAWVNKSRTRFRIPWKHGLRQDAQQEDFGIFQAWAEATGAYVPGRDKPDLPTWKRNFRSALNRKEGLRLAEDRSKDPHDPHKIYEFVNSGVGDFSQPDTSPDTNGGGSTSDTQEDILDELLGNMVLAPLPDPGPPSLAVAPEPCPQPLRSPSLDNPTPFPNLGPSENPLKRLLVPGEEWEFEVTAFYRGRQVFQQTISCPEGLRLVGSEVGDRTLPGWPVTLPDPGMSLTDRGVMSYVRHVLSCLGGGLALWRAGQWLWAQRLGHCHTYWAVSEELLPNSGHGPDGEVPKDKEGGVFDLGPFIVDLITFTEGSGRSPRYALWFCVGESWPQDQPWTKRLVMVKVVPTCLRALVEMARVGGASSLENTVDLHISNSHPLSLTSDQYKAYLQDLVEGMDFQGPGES
Technique: protein-binding microarray
Form: double-stranded DNA, one strand shown
Sample: in vitro
Concentration: 2540 nM top
Setting: 60-bp whole probe
With: salmon DNA 0.4 mg/ml
Baseline: random background probes
Reading: higher = stronger binding
All sequences stand within: GCCTAGCAC … GTCTTGATTCGCTTGACGCTGCTG
| Strand | fitted relative affinity |
| --- | --- |
| TCACATCTCGGAGATCTCACTGTGCTA | 0.743 z-score |
| GACGAACTGGGTATCGGGACGTGCTAG | 0.0495 z-score |
| GACGAACTGGGGTATCGAGCCGTGCTA | -0.591 z-score |
| ATAACCTTGAACTTCGGCCTGTGCTAG | -0.229 z-score |
| GACGGACTGGGGTATCGGGGCGTGCTA | -0.731 z-score |
| GACGGTTTCGGACTGGGGCCGTGCTAG | 4.24 z-score |
| TTAGGTTTCCTTTCCCTTCAGTGCTAG | 10.5 z-score |
| GACGATTTCGGGTCTCGAGACGTGCTA | 2.69 z-score |
| TCACAGATGTTTTTCATACTGTGCTAG | 0.376 z-score |
| TGTAGCTGGAGAAGTAAAACGTGCTAG | -0.495 z-score |
| TCAAGTTTCCCTCCCTGACTGTGCTAG | 4.83 z-score |
| AGCAAGCCCCTTCCTTTCGGGTGCTAG | -0.102 z-score |
| ATTGCTTCCTCTTTCACTGGGTGCTAG | 1.42 z-score |
| TCAGTTTTCTAAACCATACTGTGCTAG | 2.64 z-score |
| TTTAGGTCCCTTTTCATGCTGTGCTAG | 3.52 z-score |
| GGCGGTATCCTTTTCCTGACGTGCTAG | 7.59 z-score |
| CTCATTCTCTGCTTCTGTATGTGCTAG | 2.05 z-score |
| TTAGGTTTCGACTTTCGGGTAGTGCTA | 3.52 z-score |
| TCATTTCTTTTATTAGTACTGTGCTAG | 2.61 z-score |
| TTAGGTTCCGGTTTCGGTTTGTGCTAG | 9.15 z-score |
| GAAGATCTCAGTTTCGAGACGTGCTAG | 2.42 z-score |
| GACCGTTTCGGGTTTCGGGACGTGCTA | 5.83 z-score |
| GTCGGTTTCGGGTATCGGGACGTGCTA | 6.11 z-score |
| GCCGATATCGGGTTTCGAGACGTGCTA | 1.59 z-score |
| TTGGGTTTCGGTCTCGGTTAGTGCTAG | 7.16 z-score |

For quick reference, copied from above (sample 2):
| Strand | RBNS enrichment (R) |
| --- | --- |
| UCUGUGUCUCCUAGAAGCCUGACAGAGACCCCCAGGGCAGUGGGUGGGUGGCGGGCUAGAGACCCUUGCCUGUGUCCGGGACCCUGGCGCCGCUCUCCCCUCCUGUGGAU | 1.85 |
| CUGCGGCCCCAAAGCCCCUGGGCUUGGCUGUUUGAGGCAGAGGUGAUGGACUCCGGGGGCCUGACACUUGGGAUUUGGGAGGCUUCCUAGAGCGCUCAGCAGGUGAAGGC | 0.65 |
| AUUAACUGUCACCUUUUAUUCUUAAACUUGAAAGUACAGAAAUCAUUAAAUUAUUAAGUUGUACAAUAAAAGGAUUGGUUUCUUUUCUUUUUUUUUUUUUUAAGUGCUUC | 0.942 |
| GAAUUAUGUUUCCGAGGCACUGUUUUAUCUCUGUGAAUCUUGAAUAACUUUUUUAUAUUUGGGUUAUGAUGUCAAACGAUCCUAAGCGAAGAUGAUUUCAGUUCAUCAAA | 0.69 |
| ACUAGGGUGCUCACCCCUCAAGAUUGAUUCCCUGUCUUUCCCUCUGGGGCACCGCACUUUGUAAAGGGUGAUGGUGGACCCCUUCCCUUACUUUCAGGUCUGGAGUCUUC | 0.287 |
